Measured values collected from several papers.
Protocols differ between the studies behind these lines.
Cell line: NCI-H460

Structure (SMILES)	test	setting	scale	quantity	result
O=C1NC(c2ccccc2)(c2ccccc2)C(=O)N1Cc1cn(-c2cc3ccccc3oc2=O)nn1	NCI60 single-dose screen	10 µM		growth percentage	91.4%
CCCCCCCCCCCCCCCCCCOc1ccc(CC(=O)OCC[N+]2(C)CCCCC2)cc1	SRB	10 µM		growth inhibition	< 0%
CCOC(=O)CSc1nc(-c2ccc(Cl)cc2)c2c(NC(=O)c3ccccc3)nnc-2[nH]1	SRB	10 µM, NCI60 single-dose screen	reference: untreated	cell growth	97.5%
Cc1nc(NC(=O)N2CCC[C@H]2C(N)=O)sc1-c1ccnc(C(C)(C)C(F)(F)F)c1	cell growth, CellTiter-Glo	120 h		Hill coefficient GR curve	0.702
COc1cnc2cccc(N3CCc4c(cc(Cn5ccnc5C)cc4-c4cn(C)nc4C(F)(F)F)C3=O)c2c1	cell growth, inhibitor	120 h		EC50	> 30 µM
Cc1cc(C)n(-c2nc(-c3ccc(Cl)cc3)c3c(NC(=O)c4ccccc4)nnc-3[nH]2)n1	SRB	10 µM, NCI60 single-dose screen	reference: untreated	cell growth	83.2%
CCCCN1CCN(c2ccc3[nH]c(-c4ccc5[nH]c(-c6ccc(OCC)cc6)nc5c4)nc3c2)CC1	SRB	10 µM, 48 h		growth percent	75.9%
Cn1cncc1C1=CN(c2ncnc3[nH]cnc23)CCS1		lung cancer		GI50	11.7 µM
O=C(Nc1nnc2n3c(Cc4ccccc4)n[nH]c3nc(-c3ccc(Cl)cc3)c1-2)c1ccccc1	SRB	10 µM, NCI60 single-dose screen	reference: untreated	cell growth	108%
CCCCN1CCN(c2ccc3[nH]c(-c4ccc5[nH]c(-c6ccc(C(F)(F)F)cc6)nc5c4)nc3c2)CC1	SRB	10 µM, 48 h		growth percent	-79.9%
CSc1nc(-c2ccc(Cl)cc2)c2c(NC(=O)c3ccccc3)nnc-2[nH]1	SRB	10 µM, NCI60 single-dose screen	reference: untreated	cell growth	115%
Cc1cc(=O)[nH]c(=O)n1Cc1cn(-c2c3ccccc3nc3ccccc23)nn1	NCI60 single-dose screen	10 µM		growth percentage	99.3%
S=C([S][Au-][P+](CCCCCC[P+]([Au-][S]C(=S)n1cccn1)(c1ccccc1)c1ccccc1)(c1ccccc1)c1ccccc1)n1cccn1	cell growth, NCI-60 screen	non-small cell lung cancer		log10 TGI	> -4
CCN(CC)c1ccc(C=NNC(=O)CSc2nc3ccccc3c(=O)n2Cc2ccc(S(N)(=O)=O)cc2)c(O)c1	NCI five-dose screen			TGI	> 100 µM
O=C(Nc1nnc2n3c(=S)[nH][nH]c3nc(-c3ccc(Cl)cc3)c1-2)c1ccccc1	SRB	10 µM, NCI60 single-dose screen	reference: untreated	cell growth	112%
CCCN1CCN(c2ccc3[nH]c(-c4ccc5[nH]c(-c6cc(OC)c(OC)c(OC)c6)nc5c4)nc3c2)CC1	SRB	10 µM, 48 h		growth percent	93.2%
O=C1NC(c2ccccc2)(c2ccccc2)C(=O)N1Cc1cn(-c2c3ccccc3nc3ccccc23)nn1	NCI60 single-dose screen	10 µM		growth percentage	74.2%
CCCCN1CCN(c2ccc3[nH]c(-c4ccc5[nH]c(-c6cc(OC)c(OC)c(OC)c6)nc5c4)nc3c2)CC1	SRB	10 µM, 48 h		growth percent	83%
NNc1nc(-c2ccc(Cl)cc2)c2c(NC(=O)c3ccccc3)nnc-2[nH]1	SRB	10 µM, NCI60 single-dose screen	reference: untreated	cell growth	100%
CCCc1n(Cc2ccc3ccccc3c2)c2ccccc2[n+]1Cc1ccc2ccccc2c1.[Br-]	NCI60 five-dose screen			TGI	1.36 µM
CCCN1CCN(c2ccc3nc(-c4ccc5nc(-c6cc(OC)ccc6OC)[nH]c5c4)[nH]c3c2)CC1	SRB	10 µM, 48 h		growth percent	100%
Cc1n(Cc2ccc3ccccc3c2)c2ccccc2[n+]1Cc1ccc2ccccc2c1.[Br-]	NCI60 five-dose screen			TGI	3.02 µM
CCCN1CCN(c2ccc3[nH]c(-c4ccc5[nH]c(-c6ccc(C(F)(F)F)cc6)nc5c4)nc3c2)CC1	SRB	10 µM, 48 h		growth percent	-88.5%
CN(C)C(=N)N=C(N)N	flow cytometry, measured: surface PD-L1	5000 µM, 24 h		PD-L1 positive cells	15.7%
